Published values collected from several papers.
Lines come from different studies, so protocols differ.
Target: Serine/threonine-protein kinase 32C (STK32C, Homo sapiens, UniProt Q86UX6)
Sequence of UniProt Q86UX6 (whole entry, looked up): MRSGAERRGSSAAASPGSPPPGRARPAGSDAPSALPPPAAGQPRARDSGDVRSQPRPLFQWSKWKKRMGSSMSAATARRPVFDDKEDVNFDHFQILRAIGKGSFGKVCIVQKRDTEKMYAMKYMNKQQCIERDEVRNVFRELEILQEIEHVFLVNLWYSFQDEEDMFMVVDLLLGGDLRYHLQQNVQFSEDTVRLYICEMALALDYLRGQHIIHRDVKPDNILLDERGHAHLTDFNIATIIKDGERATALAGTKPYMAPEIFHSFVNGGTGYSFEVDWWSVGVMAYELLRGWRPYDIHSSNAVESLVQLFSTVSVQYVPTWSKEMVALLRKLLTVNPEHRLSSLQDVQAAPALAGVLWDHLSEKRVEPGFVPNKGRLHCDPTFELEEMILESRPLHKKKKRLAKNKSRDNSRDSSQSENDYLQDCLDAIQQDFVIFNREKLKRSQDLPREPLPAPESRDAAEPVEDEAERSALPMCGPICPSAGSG

`CN1CC[C@@H](COc2cnc(C#N)cc2-c2ccn3nc(NC(=O)C4CC4)cc3c2)C1` gave an inhibition of 6% (enzyme activity, inhibitor; 1 µM).
The inhibition of `CN1CCN(Cc2ccc(-c3ccc(CO[C@H]4CCC[C@@H]4NC(=O)c4cc(-c5cnn(C)c5)cnc4N)cc3)cc2)CC1` is reported as -9% (enzyme activity, inhibitor; 0.1 µM).
The remaining binding of `CNS(=O)(=O)Nc1nccc(Cc2c(C)c3ccc(Oc4ncccc4F)cc3oc2=O)c1F` is reported as 95% (binding, competition with immobilised ligand; 10 µM).
`CNC(=O)C1CCN(c2cc(C)c(F)cc2NC(=O)c2ccc(-c3cc(O)ccc3C)c(C)c2)CC1` has a remaining binding of 70% (binding, competition with immobilised ligand; 1 µM).
With `C=CC(=O)Nc1cc(-c2nn(C3CCN(CCNC(=O)[C@H](C)CCC45CC6CC(CC(C6)C4)C5)CC3)c3ncnc(N)c23)ccc1Oc1ccccc1` the inhibition was 10.4% (inhibitor, KiNativ profiling; biochemical; 2 µM).
For `CNC1C[S+]2CC[S+]3CC[S+](C1)[Ru-4]321([N]=C=S)[n]2c3ccc(OC)cc3c3c4c(c5cc(F)c[n+]1c5c32)C(=O)NC4=O` (centres unmarked), the remaining binding was 100% (KinomeScan; 0.1 µM; relative to: untreated).
`C=CC(=O)N1CCc2ccc(-n3c(=O)ccc4cnc5ccc(-c6cnn(C)c6)cc5c43)cc21` gave a remaining binding of 93% (KINOMEscan; 1 µM; relative to: DMSO control).
The remaining binding of `COc1cc(Nc2nccc(-c3cnn4nc(OC)ccc34)n2)cc(C(F)(F)F)c1` is reported as 100% (binding, competition with immobilised ligand; 1 µM).
`NC(=O)C[C@H]1CCc2sc3ncnc(O[C@H]4CC[C@H](N5CCOCC5)CC4)c3c21` gave an inhibition of -9% (enzyme activity, inhibitor; 10 µM).
Under “activity vs control”, `O=C(Cc1ccc(OCc2ccccc2)cc1)NC1(C(=O)O)CCN(C(=O)c2ccc(-c3cccc(Cl)c3)cc2)CC1` is recorded as 99% (enzyme activity, inhibitor; 10 µM).
For `Cc1cnc2nc1Nc1cccc(c1)COC/C=C/COCc1cc(ccc1OCCN1CCOCC1)N2`, the remaining binding was 94% (binding, competition with immobilised ligand; 0.1 µM).
With `C=CC(=O)N1CCCC(n2c(=O)c3ncccc3n(Cc3ccc(Oc4ccccc4)cc3)c2=O)C1` (centres unmarked) the remaining binding was 94% (cell-free assay, competition with immobilised ligand; 1 µM).
`Nc1ncc(-c2cc(-c3cnn(CC(F)(F)F)c3)ncc2F)nc1C(=O)NC1CNCC(F)C1` (centres unmarked) has a remaining activity of 95.5% (enzyme activity; 1 µM; relative to: DMSO control).
`CN1CCN(Cc2ccc(NC(=O)c3cccc(C#Cc4cnc(N)c5ncccc45)c3)cc2C(F)(F)F)CC1` gave a remaining binding of 100% (cell-free assay, competition with immobilised ligand; 0.5 µM).

A few entries again:
`NC(=O)C[C@H]1CCc2sc3ncnc(O[C@H]4CC[C@H](N5CCOCC5)CC4)c3c21` gave an inhibition of -9% (enzyme activity, inhibitor; 10 µM).
